Published values from different studies.
Each line is one published result; not all experiments were run side by side. Numbers after ± are the reported error.

Structure (SMILES)	target	test	test system	conditions	IC50
Cc1ccc2c(=O)n(Cc3cn(Cc4ccc(/C=C/C(=O)NO)cc4)nn3)cnc2c1	HDAC	enzyme activity, inhibitor, fluorogenic	HeLa nuclear extract	30 min, 37 °C	0.939 µM
Cc1cccc(C)c1NC(=O)C1CCCN1Cc1ccccc1 (racemic)	Nav1.4, Pelophylax lessonae	sodium current, use-dependent blocker, vaseline gap voltage clamp	skeletal muscle fibres	10 Hz pulse trains	19.8 ± 2.1 µM
O=C(/C=C/c1ccc(Cn2cc(Cn3cnc4ccc(F)cc4c3=O)nn2)cc1)NO	HDAC	enzyme activity, inhibitor, fluorogenic	HeLa nuclear extract	30 min, 37 °C	0.463 µM
Oc1ccc(/C=C/c2cc(O)cc(O)c2)cc1	human ornithine decarboxylase	enzyme activity, inhibitor	T24	added: TPA	8.8 ± 1.18 µM
CC(C)(O)C(=O)C(=O)Nc1cccc(C(=O)N2CCC(c3cccc(CN)c3)CC2)c1	tryptase, human	enzyme activity, inhibitor	HMC1	2 h, added: A23187 1 µM	0.052 µM
COc1cccc(/C=C/c2ccc(O)cc2)c1	NF-κB (human)	reporter gene, inhibitor	SW1353	added: PMA	19.5 µg/mL
O=C(Nc1ccc(Cl)cc1)C1CCN(Cc2ccccc2)C1 (centres unmarked)	Nav1.4, Pelophylax lessonae	sodium current, use-dependent blocker, vaseline gap voltage clamp	skeletal muscle fibres	2 Hz pulse trains	20.2 ± 2.1 µM
N=C(N)N	neuronal nicotinic acetylcholine receptor, rat	ACh-evoked current, inhibitor, whole-cell voltage clamp	rat intracardiac parasympathetic neurons	pH 7.9, holding -90 mV, added: 100 µM ACh	2500 µM
CC(C)(O)C(O)Cc1c(O)cc(/C=C/c2ccc(O)cc2)cc1O (centres unmarked)	NF-κB (human)	reporter gene, inhibitor	SW1353	added: PMA	> 25 µg/mL
CN1CCN(c2ccc3[nH]c(-c4ccc5[nH]c(-c6ccc(O)cc6)nc5c4)nc3c2)CC1	r(CUG)12 RNA-MBNL1 complex	MBNL1 displacement from r(CUG)12 RNA, inhibitor, qTR-FRET			> 1000 µM
N#Cc1ccc2c(c1)Oc1ccccc1N2Cc1ccc(C(=O)NO)cc1	HeLa nuclear HDACs	enzyme activity, inhibitor		added: Boc-Lys(Ac)-AMC	0.87 ± 0.02 µM
COc1cc(/C=C/c2ccc(O)cc2)cc(OC)c1	NF-κB (human)	reporter gene, inhibitor	SW1353	added: PMA	> 25 µg/mL
CCCCCCN1C(=O)C(O)=C(C(=O)c2ccc(C)cc2)C1c1ccc(OC)cc1OC (centres unmarked)	CXCR1/2 (human)	calcium flux, antagonist	human neutrophils	added: IL-8 25 nM	6.2 ± 2.1 µM
O=C(NO)c1ccc(Cn2cc(Cn3cnc4cc(F)ccc4c3=O)nn2)cc1	HDAC	enzyme activity, inhibitor, fluorogenic	HeLa nuclear extract	30 min, 37 °C	0.513 µM
Cc1cccc(C)c1NC(=O)C1CCCCN1Cc1ccccc1 (centres unmarked)	Nav1.4, Pelophylax lessonae	sodium current, use-dependent blocker, vaseline gap voltage clamp	skeletal muscle fibres	10 Hz pulse trains	36 ± 5.2 µM
CC(C)/C=C/c1c(O)cc(/C=C/C2=CC(=O)OC2CC(=O)O)cc1O (centres unmarked)	NF-κB (human)	reporter gene, inhibitor	SW1353	added: PMA	> 25 µg/mL
O=C(NO)c1ccc(Cn2cc(Cn3cnc4ccc(I)cc4c3=O)nn2)cc1	HDAC	enzyme activity, inhibitor, fluorogenic	HeLa nuclear extract	30 min, 37 °C	0.337 µM
COc1ccc([C@@]23Oc4cc(OC)cc(OC)c4[C@]2(O)[C@H](O)[C@H](C(=O)N(C)C)[C@H]3c2ccccc2)cc1	HSF1, human	heat shock reporter (HSE-driven GFP), inhibitor, dual reporter cell		added: MG132	~0.05 µM
Cc1cccc(C)c1NC(=O)C1CN(Cc2ccccc2)CCN1 (centres unmarked)	Nav1.4, Pelophylax lessonae	sodium current, use-dependent blocker, vaseline gap voltage clamp	skeletal muscle fibres	10 Hz pulse trains	2.5 ± 0.4 µM
CC(C)=CCc1c(O)cc(/C=C/c2ccccc2)cc1O	NF-κB (human)	reporter gene, inhibitor	SW1353	added: PMA	> 25 µg/mL
O=C(NO)c1ccc(CN2c3ccccc3Oc3cc(Br)ccc32)cc1	HeLa nuclear HDACs	enzyme activity, inhibitor		added: Boc-Lys(Ac)-AMC	0.53 ± 0.01 µM
CC(C)/C=C/c1c(O)cc(/C=C/c2ccccc2)cc1O	NF-κB (human)	reporter gene, inhibitor	SW1353	added: PMA	> 25 µg/mL
Cc1c(C)c(NC(=O)C2CCN(Cc3ccccc3)C2)c(C)c(C)c1Cl (centres unmarked)	Nav1.4, Pelophylax lessonae	sodium current, use-dependent blocker, vaseline gap voltage clamp	skeletal muscle fibres	10 Hz pulse trains	11.1 ± 1.3 µM

A few entries again:
Structure (SMILES)	target	test	test system	conditions	IC50
Cc1cccc(C)c1NC(=O)C1CCCCN1Cc1ccccc1 (centres unmarked)	Nav1.4, Pelophylax lessonae	sodium current, use-dependent blocker, vaseline gap voltage clamp	skeletal muscle fibres	10 Hz pulse trains	36 ± 5.2 µM
CC(C)/C=C/c1c(O)cc(/C=C/C2=CC(=O)OC2CC(=O)O)cc1O (centres unmarked)	NF-κB (human)	reporter gene, inhibitor	SW1353	added: PMA	> 25 µg/mL
O=C(NO)c1ccc(Cn2cc(Cn3cnc4ccc(I)cc4c3=O)nn2)cc1	HDAC	enzyme activity, inhibitor, fluorogenic	HeLa nuclear extract	30 min, 37 °C	0.337 µM
